# Results from different studies.
# Protocols differ between the studies behind these lines. Numbers after ± are the reported error.
# Cell line: HeLa
SMILES,assay,conditions,how to read,quantity,value
C[C@H](NC(=O)[C@H](CCCNC(=N)N)NC(=O)[C@H](CCC(=O)O)NC(=O)[C@H](CCCNC(=N)N)NC(=O)[C@H](CCCNC(=N)N)NC(=O)[C@@H](NC(=O)[C@H](CCCNC(=N)N)NC(=O)[C@H](C)NC(=O)[C@H](CCCNC(=N)N)NC(=O)[C@H](CCC(=O)O)NC(=O)[C@@H](N)CCCNC(=N)N)[C@@H](C)O)C(=O)N[C@@H](CCCNC(=N)N)C(=O)N[C@H](C(=O)N[C@@H](CCCNC(=N)N)C(=O)N[C@@H](CCC(=O)O)C(=O)N[C@@H](CCCNC(=N)N)C(=O)N[C@@H](C)C(=O)N[C@@H](CCCNC(=N)N)C(=O)N[C@H](C(=O)N[C@@H](CCCNC(=N)N)C(=O)O)[C@@H](C)O)[C@@H](C)O,measured: VEGF165b,from 25 µM,,expression level,increased
O=C(O)CC[C@H](NC(=O)CNC(=O)[C@@H](Cc1ccccc1)NC(=O)[C@@H](Cc1ccccc1)NC(=O)Cc1ccc2ccccc2c1)C(=O)N[C@@H](Cc1ccc(OP(=O)(O)O)cc1)C(=O)O,,"500 µM, 48 h",,viability,> 100%
CC[C@H](C)[C@@H]([C@@H](CC(=O)N1CCC[C@H]1[C@H](OC)[C@@H](C)C(=O)NC(Cc1ccccc1)C(C)OC)OC)N(C)C(=O)[C@@H](NC(=O)[C@H]([C@@H](C)CC)N(C)C)C(C)C (stereo partly drawn),"tubulin network disruption, immunofluorescence microscopy, measured: alpha-tubulin",,,lowest effective concentration,0.1 nM
CC(C)C[C@@H](NC(=O)CCNc1ccc([N+](=O)[O-])c2nonc12)C(=O)N[C@H](CC(C)C)C(=O)N[C@H](CC(C)C)C(=O)N[C@H](CC(C)C)C(=O)N[C@H](Cc1ccc(OP(=O)(O)O)cc1)C(=O)O,MTT,"200 µM, 24 h",,viability,> 60%
CC(=O)N[C@@H](CCCNC(=N)N)C(=O)N[C@@H](CCCNC(=N)N)C(=O)N[C@@H](CCCNC(=N)N)C(=O)N[C@@H](CCCNC(=N)N)C(=O)N[C@@H](CCCNC(=N)N)C(=O)N[C@@H](CCCNC(=N)N)C(=O)N[C@@H](CCCNC(=N)N)C(=O)N[C@@H](CCCNC(=N)N)C(=O)N[C@@H](CCCNC(=N)N)C(=O)N[C@@H](CCCNC(=N)N)C(=O)NCC(=O)N[C@@H](COP(=O)(O)O)C(=O)N1CCC[C@H]1C(=O)N[C@H](C(=O)N[C@@H](Cc1ccccc1)C(=O)O)[C@@H](C)O,"DNA damage, immunostaining","10 µM, 30 min, added: ionizing radiation 5 Gy",,γH2AX-positive cells,35.7 ± 2.78%
CCCCNC(P(=O)(O)O)P(=O)(O)O,Amplex Red,"100 µM, 24 h",,cellular cholesterol reduction,15%
CC[C@@]1(O)C(=O)OCc2c1cc1n(c2=O)Cc2cc3cc(OC(=O)CCCC(=O)NCC(=O)N[C@@H](Cc4ccccc4)C(=O)N[C@@H](Cc4ccccc4)C(=O)N[C@@H](Cc4ccc(OP(=O)(O)O)cc4)C(=O)NCCSSCCNC(=O)CCC(=O)N[C@@H](CCC(=O)O)C(=O)N[C@@H](CCCNC(=N)N)C(=O)NCC(=O)N[C@@H](CC(=O)O)C(=O)O)ccc3nc2-1,MTT,48 h,reference: free HCPT over compound,IC50 ratio,4.21 fold
CC[C@H](C)[C@@H]([C@@H](CC(=O)N1CCC[C@H]1[C@H](OC)[C@@H](C)C(=O)N[C@H](C)[C@@H](O)c1ccccc1)OC)N(C)C(=O)[C@@H](NC(=O)[C@@H](NC)C(C)C)C(C)C,cytotoxicity,,"reference: compound over MMAF, higher = more active than MMAF",potency ratio,10 fold
CC1=CC=c2ccc3c4c2[N]1[Re](=[C]=O)(=[C]=O)(=[C]=O)([C]#[N+]c1c(C)cccc1C)[N]4C(C)=CC=3.O=S(=O)([O-])C(F)(F)F,protein aggregation,"10 µM, 30 min",reference: untreated,ThT fluorescence,≥ 2 fold
Cc1ccc2ccc3ccc(C)nc3c2n1.O.[99Tc+].[C-]#[O+].[C-]#[O+].[C-]#[O+],annexin V/PI,"concentration not given, added: Z-VAD-FMK",,apoptotic cells,no effect
CC(C)C12OC1C1OC13C1(C)CCC4=C(COC4=O)C1CC1OC13C2OC(=O)CCCOC1OC(CO)C(O)C(O)C1O (stereo not drawn),Hoechst staining,"3 µM, 6% DMSO",,cells with nuclear fragmentation,53%
CC[C@H](C)[C@@H]([C@@H](CC(=O)N1CCC[C@H]1[C@H](OC)[C@@H](C)C(=O)N[C@@H](Cc1ccccc1)C(=O)O)OC)N(C)C(=O)[C@@H](NC(=O)[C@H](C(C)C)N(C)C(=O)CCSSC[C@H](NC(=O)[C@@H](NC(=O)CNC(=O)[C@H](CCC(=O)O)NC(=O)[C@H](CC(=O)O)NC(=O)[C@H](C)NC(=O)[C@H](CC(=O)O)NC(=O)[C@@H](NC(=O)[C@H](CC(C)C)NC(=O)[C@H](CC(C)C)NC(=O)[C@H](C)NC(=O)[C@H](CC(C)C)NC(=O)[C@H](CC(=O)O)NC(=O)[C@H](CC(C)C)NC(=O)[C@H](CC(C)C)NC(=O)[C@H](CC(C)C)NC(=O)[C@H](CC(C)C)NC(=O)[C@@H]1CCCN1C(=O)[C@@H](NC(=O)[C@@H](NC(=O)[C@H](Cc1ccccc1)NC(=O)[C@H](CC(C)C)NC(=O)[C@H](Cc1c[nH]c2ccccc12)NC(=O)[C@H](CC(=O)O)NC(=O)[C@H](C)NC(=O)[C@H](Cc1ccc(O)cc1)NC(=O)[C@H](CCCNC(=N)N)NC(=O)[C@H](C)NC(=O)[C@H](Cc1c[nH]c2ccccc12)NC(=O)[C@H](Cc1ccc(O)cc1)NC(=O)[C@@H](NC(=O)[C@@H]1CCCN1C(=O)[C@H](CC(N)=O)NC(=O)[C@H](CCC(N)=O)NC(=O)[C@H](CCC(=O)O)NC(=O)CNC(=O)CN)[C@@H](C)CC)[C@@H](C)O)[C@@H](C)O)C(C)C)[C@@H](C)O)C(=O)NCC(N)=O)C(C)C,MTT,without Ca2+,reference: pH 6.0 over pH 7.4,IC50 fold decrease,5 fold

# For quick reference, copied from above:
SMILES,assay,conditions,how to read,quantity,value
CC(C)C[C@@H](NC(=O)CCNc1ccc([N+](=O)[O-])c2nonc12)C(=O)N[C@H](CC(C)C)C(=O)N[C@H](CC(C)C)C(=O)N[C@H](CC(C)C)C(=O)N[C@H](Cc1ccc(OP(=O)(O)O)cc1)C(=O)O,MTT,"200 µM, 24 h",,viability,> 60%
CC(=O)N[C@@H](CCCNC(=N)N)C(=O)N[C@@H](CCCNC(=N)N)C(=O)N[C@@H](CCCNC(=N)N)C(=O)N[C@@H](CCCNC(=N)N)C(=O)N[C@@H](CCCNC(=N)N)C(=O)N[C@@H](CCCNC(=N)N)C(=O)N[C@@H](CCCNC(=N)N)C(=O)N[C@@H](CCCNC(=N)N)C(=O)N[C@@H](CCCNC(=N)N)C(=O)N[C@@H](CCCNC(=N)N)C(=O)NCC(=O)N[C@@H](COP(=O)(O)O)C(=O)N1CCC[C@H]1C(=O)N[C@H](C(=O)N[C@@H](Cc1ccccc1)C(=O)O)[C@@H](C)O,"DNA damage, immunostaining","10 µM, 30 min, added: ionizing radiation 5 Gy",,γH2AX-positive cells,35.7 ± 2.78%
